Results from different studies.
A part holds a random share of what one study measured. Positions count from the first letter of the parent shown.
UniProt O75116, sequence (whole entry, looked up): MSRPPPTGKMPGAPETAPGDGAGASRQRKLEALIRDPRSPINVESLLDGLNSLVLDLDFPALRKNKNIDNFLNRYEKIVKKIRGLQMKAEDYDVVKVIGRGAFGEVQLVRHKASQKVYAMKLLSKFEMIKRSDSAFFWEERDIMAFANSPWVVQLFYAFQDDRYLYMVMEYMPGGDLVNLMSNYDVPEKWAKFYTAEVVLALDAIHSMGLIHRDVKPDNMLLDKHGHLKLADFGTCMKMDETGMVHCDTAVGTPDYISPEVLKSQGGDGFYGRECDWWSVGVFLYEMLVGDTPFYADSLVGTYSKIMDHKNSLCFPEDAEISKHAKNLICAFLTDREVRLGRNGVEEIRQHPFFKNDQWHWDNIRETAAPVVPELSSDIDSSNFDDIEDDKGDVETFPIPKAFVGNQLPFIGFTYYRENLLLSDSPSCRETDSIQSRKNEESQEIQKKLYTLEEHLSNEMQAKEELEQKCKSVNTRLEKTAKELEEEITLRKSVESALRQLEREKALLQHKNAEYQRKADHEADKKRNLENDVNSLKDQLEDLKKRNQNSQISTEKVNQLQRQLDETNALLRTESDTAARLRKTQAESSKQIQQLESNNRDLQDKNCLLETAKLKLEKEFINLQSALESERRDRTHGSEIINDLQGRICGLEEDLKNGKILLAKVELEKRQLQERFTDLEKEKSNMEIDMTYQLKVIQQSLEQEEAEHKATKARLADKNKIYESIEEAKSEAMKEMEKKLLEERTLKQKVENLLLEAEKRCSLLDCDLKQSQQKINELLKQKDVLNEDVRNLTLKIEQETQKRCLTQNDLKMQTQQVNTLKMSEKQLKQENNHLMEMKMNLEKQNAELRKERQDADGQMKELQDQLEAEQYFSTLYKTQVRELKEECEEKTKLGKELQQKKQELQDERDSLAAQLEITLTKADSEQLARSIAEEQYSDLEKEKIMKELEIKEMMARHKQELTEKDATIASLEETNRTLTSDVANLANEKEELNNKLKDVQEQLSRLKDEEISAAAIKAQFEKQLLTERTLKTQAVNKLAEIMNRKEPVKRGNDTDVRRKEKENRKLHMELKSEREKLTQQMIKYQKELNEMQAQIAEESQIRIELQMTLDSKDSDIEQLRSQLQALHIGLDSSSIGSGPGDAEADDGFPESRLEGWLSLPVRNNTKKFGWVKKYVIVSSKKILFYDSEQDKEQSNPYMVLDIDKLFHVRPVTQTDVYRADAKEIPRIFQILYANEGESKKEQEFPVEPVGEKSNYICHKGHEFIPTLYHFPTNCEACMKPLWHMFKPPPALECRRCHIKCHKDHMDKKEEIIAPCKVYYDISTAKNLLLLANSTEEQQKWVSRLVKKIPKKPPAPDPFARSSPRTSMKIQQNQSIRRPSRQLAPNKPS
UniProt P11802, sequence (whole entry, looked up): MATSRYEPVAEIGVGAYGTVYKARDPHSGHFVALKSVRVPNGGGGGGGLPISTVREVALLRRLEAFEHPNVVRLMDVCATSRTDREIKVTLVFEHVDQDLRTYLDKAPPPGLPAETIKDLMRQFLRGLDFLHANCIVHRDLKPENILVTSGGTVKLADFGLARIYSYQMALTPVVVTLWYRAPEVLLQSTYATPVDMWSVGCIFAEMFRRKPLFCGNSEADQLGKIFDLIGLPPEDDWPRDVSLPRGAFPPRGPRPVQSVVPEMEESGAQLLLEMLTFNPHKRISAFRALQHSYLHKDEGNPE
UniProt Q86Y07, sequence (whole entry, looked up): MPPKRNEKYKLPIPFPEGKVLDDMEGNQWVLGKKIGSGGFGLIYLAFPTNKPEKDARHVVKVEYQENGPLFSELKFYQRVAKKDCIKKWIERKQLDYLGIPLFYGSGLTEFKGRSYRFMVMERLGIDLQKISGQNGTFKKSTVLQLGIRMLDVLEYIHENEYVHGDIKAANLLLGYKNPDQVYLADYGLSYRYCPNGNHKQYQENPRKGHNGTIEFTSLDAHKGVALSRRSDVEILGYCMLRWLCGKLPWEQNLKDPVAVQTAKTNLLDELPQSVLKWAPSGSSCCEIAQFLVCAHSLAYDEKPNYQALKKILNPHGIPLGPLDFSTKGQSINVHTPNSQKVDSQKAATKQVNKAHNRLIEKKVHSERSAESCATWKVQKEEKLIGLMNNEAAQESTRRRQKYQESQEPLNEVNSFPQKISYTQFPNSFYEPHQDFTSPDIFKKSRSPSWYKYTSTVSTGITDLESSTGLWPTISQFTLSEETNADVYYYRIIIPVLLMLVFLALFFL
UniProt Q8WU08, sequence (whole entry, looked up): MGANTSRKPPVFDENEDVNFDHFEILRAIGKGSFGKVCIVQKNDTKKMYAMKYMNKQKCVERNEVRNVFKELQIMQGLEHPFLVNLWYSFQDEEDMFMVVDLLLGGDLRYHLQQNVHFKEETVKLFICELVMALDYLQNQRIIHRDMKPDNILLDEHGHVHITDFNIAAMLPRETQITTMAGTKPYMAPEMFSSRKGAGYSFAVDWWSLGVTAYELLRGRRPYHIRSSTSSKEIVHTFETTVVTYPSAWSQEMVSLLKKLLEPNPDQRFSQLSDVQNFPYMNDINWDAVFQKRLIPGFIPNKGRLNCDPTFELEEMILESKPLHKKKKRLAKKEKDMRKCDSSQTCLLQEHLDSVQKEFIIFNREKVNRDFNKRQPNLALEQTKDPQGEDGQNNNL

Series 1 — Change: Q19V; technique: DHFR PCA, deep sequencing; matrix: yeast; relative to: wild-type fitted maximum; direction: higher = stronger binding
Target: ABI1, truncated, D143A, DHFR fusion (Arabidopsis thaliana)
Notes: methotrexate growth selection, single substitutions
Parent: PYL1, truncated, DHFR fusion (Arabidopsis thaliana); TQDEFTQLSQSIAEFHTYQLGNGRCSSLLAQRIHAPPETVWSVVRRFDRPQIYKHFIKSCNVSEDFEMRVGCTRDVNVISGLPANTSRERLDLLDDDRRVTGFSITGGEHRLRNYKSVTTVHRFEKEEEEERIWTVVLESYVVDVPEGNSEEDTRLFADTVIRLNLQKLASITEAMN
| setting | relative binding score [%] |
| --- | --- |
| together with: (+)-ABA 710 µM | 107 |
| together with: (+)-ABA 0.39 µM | 38.8 |
| together with: (+)-ABA 0 µM | 16.6 |
| together with: (+)-ABA 0.11 µM | 24.3 |
| together with: (+)-ABA 0.0091 µM | 18.2 |
| together with: (+)-ABA 1.4 µM | 60.1 |

Series 2 — technique: universal PBM; molecule type: double-stranded DNA, one strand shown; matrix: in vitro; tested at: not given; direction: higher = stronger binding
Target: Sal-like protein 4, full length isoform B (SALL4, Homo sapiens, UniProt Q9UJQ4-2, residues 1-616)
Notes: 8-mer, flanks averaged, mean of replicates
Target sequence (chain): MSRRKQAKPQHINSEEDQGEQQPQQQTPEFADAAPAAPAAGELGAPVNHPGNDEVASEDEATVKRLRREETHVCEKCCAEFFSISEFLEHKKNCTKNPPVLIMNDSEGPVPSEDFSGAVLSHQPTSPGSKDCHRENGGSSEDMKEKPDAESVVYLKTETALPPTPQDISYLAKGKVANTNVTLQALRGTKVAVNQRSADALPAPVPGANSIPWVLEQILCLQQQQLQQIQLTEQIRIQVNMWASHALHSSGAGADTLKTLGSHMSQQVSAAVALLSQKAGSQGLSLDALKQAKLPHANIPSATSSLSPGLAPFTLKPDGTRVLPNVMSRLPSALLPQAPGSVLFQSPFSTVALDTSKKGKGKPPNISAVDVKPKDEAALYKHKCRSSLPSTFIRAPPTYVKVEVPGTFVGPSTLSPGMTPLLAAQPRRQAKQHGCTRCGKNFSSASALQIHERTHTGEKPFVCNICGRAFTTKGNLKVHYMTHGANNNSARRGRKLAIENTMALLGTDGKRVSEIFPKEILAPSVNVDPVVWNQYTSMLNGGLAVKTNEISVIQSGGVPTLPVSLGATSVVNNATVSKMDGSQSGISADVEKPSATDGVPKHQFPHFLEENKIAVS
| Sequence | E-score |
| --- | --- |
| CCGAAAGA | -0.168 |
| AAGCAGAT | 0.0146 |
| GGGTTCCA | -0.272 |
| CGTGCACG | 0.0277 |
| AGAAAGTA | 0.167 |
| GGTAGCAC | -0.301 |
| CAGGACGA | -0.189 |
| GACGGCTC | -0.244 |

Series 3 — read-out: enzyme activity; action: inhibitor; tested at: 0.5 µM; relative to: control
Target: Proto-oncogene tyrosine-protein kinase ROS (ROS1, Homo sapiens, UniProt P08922)
UniProt P08922, sequence (whole entry, looked up): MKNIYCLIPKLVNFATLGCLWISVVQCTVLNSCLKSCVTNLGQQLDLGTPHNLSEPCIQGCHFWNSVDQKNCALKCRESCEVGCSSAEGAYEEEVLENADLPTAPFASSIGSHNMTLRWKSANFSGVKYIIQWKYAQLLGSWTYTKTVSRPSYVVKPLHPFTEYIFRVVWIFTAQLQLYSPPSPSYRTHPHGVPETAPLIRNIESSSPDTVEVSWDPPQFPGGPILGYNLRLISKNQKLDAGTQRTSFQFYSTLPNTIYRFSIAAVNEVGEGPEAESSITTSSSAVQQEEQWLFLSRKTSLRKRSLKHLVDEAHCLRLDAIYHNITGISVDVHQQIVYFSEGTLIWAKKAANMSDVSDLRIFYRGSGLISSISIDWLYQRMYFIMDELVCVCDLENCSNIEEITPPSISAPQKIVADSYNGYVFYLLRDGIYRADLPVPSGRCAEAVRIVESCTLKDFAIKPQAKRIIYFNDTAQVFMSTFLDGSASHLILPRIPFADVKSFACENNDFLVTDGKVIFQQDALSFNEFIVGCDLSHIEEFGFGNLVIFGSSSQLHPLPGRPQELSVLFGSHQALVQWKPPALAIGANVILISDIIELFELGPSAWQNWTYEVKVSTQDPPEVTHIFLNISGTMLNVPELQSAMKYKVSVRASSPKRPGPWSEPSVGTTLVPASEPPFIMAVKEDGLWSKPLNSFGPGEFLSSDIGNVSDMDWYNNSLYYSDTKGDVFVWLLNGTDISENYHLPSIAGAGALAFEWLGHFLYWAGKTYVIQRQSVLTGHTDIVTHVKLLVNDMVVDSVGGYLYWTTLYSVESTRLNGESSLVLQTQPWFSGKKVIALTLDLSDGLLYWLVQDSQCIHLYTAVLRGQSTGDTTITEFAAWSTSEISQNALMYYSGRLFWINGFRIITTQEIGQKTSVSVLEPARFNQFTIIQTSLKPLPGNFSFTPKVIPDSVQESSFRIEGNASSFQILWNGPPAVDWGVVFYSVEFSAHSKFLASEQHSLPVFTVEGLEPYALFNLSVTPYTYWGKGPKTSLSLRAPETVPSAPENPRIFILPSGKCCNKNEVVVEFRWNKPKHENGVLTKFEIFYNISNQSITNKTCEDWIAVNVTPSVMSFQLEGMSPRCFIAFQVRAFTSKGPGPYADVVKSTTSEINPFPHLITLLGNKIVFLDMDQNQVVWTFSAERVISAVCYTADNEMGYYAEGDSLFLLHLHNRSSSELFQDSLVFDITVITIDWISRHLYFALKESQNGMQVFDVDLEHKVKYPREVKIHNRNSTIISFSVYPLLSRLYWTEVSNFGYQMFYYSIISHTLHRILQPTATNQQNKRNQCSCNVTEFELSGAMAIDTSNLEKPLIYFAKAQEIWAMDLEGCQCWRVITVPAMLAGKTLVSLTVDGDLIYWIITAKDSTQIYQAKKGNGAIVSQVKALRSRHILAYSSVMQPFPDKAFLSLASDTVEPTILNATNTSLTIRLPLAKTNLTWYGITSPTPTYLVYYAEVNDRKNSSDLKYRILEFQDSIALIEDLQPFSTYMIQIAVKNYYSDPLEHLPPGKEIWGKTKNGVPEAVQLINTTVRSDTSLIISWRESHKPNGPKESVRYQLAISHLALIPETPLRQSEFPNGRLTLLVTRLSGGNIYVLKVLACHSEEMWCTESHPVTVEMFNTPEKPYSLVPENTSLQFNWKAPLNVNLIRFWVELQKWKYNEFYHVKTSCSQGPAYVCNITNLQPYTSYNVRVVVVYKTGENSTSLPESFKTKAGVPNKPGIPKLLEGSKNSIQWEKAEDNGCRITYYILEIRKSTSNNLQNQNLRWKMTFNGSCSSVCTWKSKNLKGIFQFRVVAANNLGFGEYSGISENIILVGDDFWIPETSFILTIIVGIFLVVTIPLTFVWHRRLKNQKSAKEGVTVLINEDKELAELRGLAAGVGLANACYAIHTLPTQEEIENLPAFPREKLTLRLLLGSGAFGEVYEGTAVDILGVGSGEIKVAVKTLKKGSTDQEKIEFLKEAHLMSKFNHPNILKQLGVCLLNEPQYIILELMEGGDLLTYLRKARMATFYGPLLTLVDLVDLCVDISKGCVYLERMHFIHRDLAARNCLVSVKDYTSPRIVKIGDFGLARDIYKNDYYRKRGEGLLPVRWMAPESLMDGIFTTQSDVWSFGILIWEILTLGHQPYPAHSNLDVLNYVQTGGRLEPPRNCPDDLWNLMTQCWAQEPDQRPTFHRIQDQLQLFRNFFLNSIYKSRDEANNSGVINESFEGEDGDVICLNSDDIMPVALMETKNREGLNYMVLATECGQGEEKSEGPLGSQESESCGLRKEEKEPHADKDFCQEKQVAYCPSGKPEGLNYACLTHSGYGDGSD
| SMILES | remaining activity [%] |
| --- | --- |
| Cc1ccc(S(=O)(=O)/C=C/C#N)cc1 | 94.1 |
| CCCNC(=O)Nc1ccc(Oc2ncnc3cc(OC)c(OC)cc23)cc1Cl | 97.6 |
| O=C1Cc2c([nH]c3ccc(Br)cc23)-c2ccccc2N1 | 83.6 |
| COc1ccc2c(c1)c(C1=C(c3c[nH]c4ccccc34)C(=O)NC1=O)cn2CCCN(C)C | 52.4 |
| O=C1NC(=O)c2c1c1c3ccccc3[nH]c1n1cncc21 | 77 |
| Oc1cccc(-c2nc(N3CCOCC3)c3oc4ncccc4c3n2)c1 | 93.1 |
| CC(C)(C)c1nc2c3cc[nH]c(=O)c3c3cc(F)ccc3c2[nH]1 | 31.2 |
| O=C1Nc2ccccc2/C1=C\c1c(Cl)[nH]c2ccccc12 | 109 |
| O=Nc1c(-c2c(O)[nH]c3cc(Br)ccc23)[nH]c2ccccc12 | 82 |
| Clc1ccc(Nc2nnc(Cc3ccncc3)c3ccccc23)cc1 | 94.7 |
| O=C(O)/C=C/c1cc(Br)c(Br)c(Br)c1Br | 94 |
| NC(=O)c1ccc(-c2nc(-c3ccc4c(c3)OCCO4)c(-c3ccccn3)[nH]2)cc1 | 113 |

Series 4 — read-out: cell-free assay; technique: competition with immobilised ligand; tested at: 1 µM
SMILES: CN(C)c1ncnc(-c2ccc3nc(Nc4cc(CN5CCN(C(=O)CC(F)(F)F)CC5)ccn4)[nH]c3c2)c1Cl
| target | remaining binding [%] |
| --- | --- |
| ROCK2 (Homo sapiens, UniProt O75116) | 91 |
| IRAK3 (Homo sapiens, UniProt Q9Y616) | 97 |
| Aurora kinase B (AURKB, Homo sapiens, UniProt Q96GD4) | 85 |
| Cyclin-dependent kinase 4, with cyclin D3 (CDK4, Homo sapiens, UniProt P11802) | 70 |
| ALK (Homo sapiens, UniProt Q9UM73, C1156Y) | 59 |
| VRK2 (Homo sapiens, UniProt Q86Y07) | 88 |
| FER (Homo sapiens, UniProt P16591) | 100 |
| KIT (Homo sapiens, UniProt P10721, D816H) | 75 |
| STK32A (Homo sapiens, UniProt Q8WU08) | 85 |
| CAMK4 (Homo sapiens, UniProt Q16566) | 89 |

Repeated from above (series 2):
| Sequence | E-score |
| --- | --- |
| AAGCAGAT | 0.0146 |
| GGGTTCCA | -0.272 |
| CGTGCACG | 0.0277 |
